Published values collected from several papers.
Each line is one published result; not all experiments were run side by side. ± gives the spread as reported.
T1: RNA aptamer; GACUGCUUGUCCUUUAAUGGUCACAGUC
T2: G-quadruplex DNA (Homo sapiens); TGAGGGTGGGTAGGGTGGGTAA
T3: RNA aptamer; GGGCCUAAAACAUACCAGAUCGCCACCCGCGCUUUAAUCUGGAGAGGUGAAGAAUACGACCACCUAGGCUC
UniProt Q16539, sequence (whole entry, looked up): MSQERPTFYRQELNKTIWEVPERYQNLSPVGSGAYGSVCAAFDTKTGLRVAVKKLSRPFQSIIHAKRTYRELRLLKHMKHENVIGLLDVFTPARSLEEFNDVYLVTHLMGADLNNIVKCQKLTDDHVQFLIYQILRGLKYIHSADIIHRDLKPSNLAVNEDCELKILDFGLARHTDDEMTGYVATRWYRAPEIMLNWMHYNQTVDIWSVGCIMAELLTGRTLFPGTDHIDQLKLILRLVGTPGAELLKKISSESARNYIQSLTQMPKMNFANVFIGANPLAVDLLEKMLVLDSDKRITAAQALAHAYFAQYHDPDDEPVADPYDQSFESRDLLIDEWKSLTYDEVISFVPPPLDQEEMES
UniProt P23141, sequence (whole entry, looked up): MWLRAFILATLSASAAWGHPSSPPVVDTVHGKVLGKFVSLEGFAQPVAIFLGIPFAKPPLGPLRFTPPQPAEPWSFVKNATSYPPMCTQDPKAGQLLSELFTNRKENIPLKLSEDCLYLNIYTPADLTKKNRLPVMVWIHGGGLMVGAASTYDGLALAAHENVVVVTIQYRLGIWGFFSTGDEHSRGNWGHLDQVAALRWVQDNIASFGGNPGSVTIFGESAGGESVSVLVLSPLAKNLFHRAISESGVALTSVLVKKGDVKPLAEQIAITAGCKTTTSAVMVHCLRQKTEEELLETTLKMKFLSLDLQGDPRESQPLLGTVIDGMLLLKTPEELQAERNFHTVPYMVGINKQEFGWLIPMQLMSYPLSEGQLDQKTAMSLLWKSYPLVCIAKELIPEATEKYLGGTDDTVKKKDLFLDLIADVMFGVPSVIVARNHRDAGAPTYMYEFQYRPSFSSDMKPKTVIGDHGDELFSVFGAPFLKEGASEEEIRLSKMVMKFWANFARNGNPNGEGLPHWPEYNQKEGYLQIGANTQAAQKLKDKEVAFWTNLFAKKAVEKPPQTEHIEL
UniProt Q03431, sequence (whole entry, looked up): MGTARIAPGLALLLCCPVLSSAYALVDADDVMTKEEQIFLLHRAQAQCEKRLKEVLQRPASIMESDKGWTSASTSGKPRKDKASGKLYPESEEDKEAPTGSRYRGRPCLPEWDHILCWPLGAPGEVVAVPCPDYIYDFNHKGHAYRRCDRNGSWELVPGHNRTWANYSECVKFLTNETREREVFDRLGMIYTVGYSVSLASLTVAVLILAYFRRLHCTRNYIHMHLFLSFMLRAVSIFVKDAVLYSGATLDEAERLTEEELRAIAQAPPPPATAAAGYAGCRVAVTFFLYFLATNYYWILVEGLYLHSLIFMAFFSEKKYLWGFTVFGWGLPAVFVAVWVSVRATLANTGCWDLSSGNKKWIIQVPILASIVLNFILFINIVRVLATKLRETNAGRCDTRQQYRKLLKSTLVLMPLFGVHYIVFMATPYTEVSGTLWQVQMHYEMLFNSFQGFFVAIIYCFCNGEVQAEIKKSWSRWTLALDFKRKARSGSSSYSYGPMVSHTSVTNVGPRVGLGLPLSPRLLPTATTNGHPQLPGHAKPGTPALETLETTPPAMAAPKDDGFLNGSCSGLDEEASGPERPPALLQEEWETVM
UniProt P43657, sequence (whole entry, looked up): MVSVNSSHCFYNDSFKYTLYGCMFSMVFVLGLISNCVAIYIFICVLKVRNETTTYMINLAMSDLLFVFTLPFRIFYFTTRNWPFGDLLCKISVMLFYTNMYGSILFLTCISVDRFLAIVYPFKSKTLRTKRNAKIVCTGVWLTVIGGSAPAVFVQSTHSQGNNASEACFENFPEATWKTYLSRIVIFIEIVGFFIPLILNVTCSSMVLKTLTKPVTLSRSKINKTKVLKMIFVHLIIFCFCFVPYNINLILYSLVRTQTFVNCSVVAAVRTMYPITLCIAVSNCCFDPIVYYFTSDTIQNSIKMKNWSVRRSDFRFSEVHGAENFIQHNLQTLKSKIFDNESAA
UniProt P29320, sequence (whole entry, looked up): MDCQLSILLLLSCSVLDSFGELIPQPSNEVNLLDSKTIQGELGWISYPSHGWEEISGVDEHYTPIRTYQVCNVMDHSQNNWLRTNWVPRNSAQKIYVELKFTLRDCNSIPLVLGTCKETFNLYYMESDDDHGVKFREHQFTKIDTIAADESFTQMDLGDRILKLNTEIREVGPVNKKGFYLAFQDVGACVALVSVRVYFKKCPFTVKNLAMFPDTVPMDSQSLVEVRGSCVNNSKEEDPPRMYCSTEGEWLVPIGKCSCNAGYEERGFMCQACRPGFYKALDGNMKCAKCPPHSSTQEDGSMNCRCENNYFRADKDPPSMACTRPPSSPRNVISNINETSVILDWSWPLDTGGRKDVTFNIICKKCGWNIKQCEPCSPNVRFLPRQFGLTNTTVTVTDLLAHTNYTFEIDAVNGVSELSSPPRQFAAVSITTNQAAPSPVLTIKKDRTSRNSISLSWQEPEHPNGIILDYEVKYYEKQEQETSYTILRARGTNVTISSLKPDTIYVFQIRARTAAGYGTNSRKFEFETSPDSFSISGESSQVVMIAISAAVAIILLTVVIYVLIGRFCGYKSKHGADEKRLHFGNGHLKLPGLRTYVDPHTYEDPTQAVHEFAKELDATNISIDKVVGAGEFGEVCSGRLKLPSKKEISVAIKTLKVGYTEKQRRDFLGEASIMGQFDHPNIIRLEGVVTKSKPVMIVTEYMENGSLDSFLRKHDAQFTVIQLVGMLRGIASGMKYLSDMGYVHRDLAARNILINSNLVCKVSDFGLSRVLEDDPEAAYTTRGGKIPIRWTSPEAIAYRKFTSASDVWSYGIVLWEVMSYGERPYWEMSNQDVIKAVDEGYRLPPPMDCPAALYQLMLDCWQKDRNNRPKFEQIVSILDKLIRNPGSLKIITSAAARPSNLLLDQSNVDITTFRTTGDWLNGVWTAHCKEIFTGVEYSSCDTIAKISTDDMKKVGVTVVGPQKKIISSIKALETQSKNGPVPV
UniProt P11309, sequence (whole entry, looked up): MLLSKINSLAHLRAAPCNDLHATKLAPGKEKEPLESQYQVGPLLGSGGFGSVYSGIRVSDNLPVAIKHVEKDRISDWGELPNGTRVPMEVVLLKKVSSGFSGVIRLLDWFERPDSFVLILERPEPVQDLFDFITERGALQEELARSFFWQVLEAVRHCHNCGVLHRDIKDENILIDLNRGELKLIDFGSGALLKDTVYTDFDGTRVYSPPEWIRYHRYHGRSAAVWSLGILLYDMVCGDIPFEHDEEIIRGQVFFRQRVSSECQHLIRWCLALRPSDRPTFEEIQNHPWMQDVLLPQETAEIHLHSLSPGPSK

NC[C@@H]1O[C@H](O[C@H]2[C@@H](O)[C@H](O[C@@H]3[C@@H](O)[C@H](N)C[C@H](N)[C@H]3O[C@H]3O[C@H](CN)[C@@H](O)[C@H](O)[C@H]3N)O[C@@H]2CO)[C@H](N)[C@@H](O)[C@@H]1O — result for “melting temperature change”: 13.3 °C (T1, RNA aptamer; UV melting; 1 µM RNA, 10 µM molecule, pH 6.8, NaCl 100 mM).
For CC(=O)NCCN(CC(=O)NCCN(CC(=O)NCCN(CC(=O)NCCC(N)=O)C(=O)C[C@@H](N)Cc1ccccc1)C(=O)C[C@@H](N)CCCNC(=N)N)C(=O)C[C@@H](N)CCCNC(=N)N, “binding free energy ΔG°” read -8.84 ± 0.598 kcal/mol (HIV-1 TAR RNA; 25 °C).
NC(=O)C1CCNC(=O)C(CCCNC(=O)c2cnccn2)NC(=O)C(CC2CCCCC2)NC(=O)C(CC=Cc2ccccc2)NC(=O)C=CC(=O)N1 (stereo not drawn) gave an enrichment factor of 1.9 (PIM1 (Homo sapiens, UniProt P11309); DNA-templated library selection; one selection round).
For COc1cc(C(=O)NC2CCC(N3CCN(CC4CCC5(CCCC5)C4)CC3)CC2)c(F)cc1Nc1ncc2c(n1)N(C1CCCC1(F)F)CC(F)(F)C(=O)N2C (stereo not drawn), the inhibition was 0.79% (EPHA3 (Homo sapiens, UniProt P29320); cell-free assay, TR-FRET; 10 µM).
With CCCCCCCCC(=O)Nc1ccc(OC)nc1C the specific activity was 390 pmol/min/µg (CES1 (Homo sapiens, UniProt P23141); substrate; 50 µM, pH 8, 37 °C, enzyme purity 25%).
For CC[C@H](C)[C@H](NC(=O)[C@H](CCC(=O)O)NC(=O)[C@@H](N)CO)C(=O)N[C@@H](CCC(N)=O)C(=O)N[C@@H](CC(C)C)C(=O)N[C@@H](CCSC)C(=O)N[C@@H](Cc1c[nH]cn1)C(=O)N[C@@H](CC(N)=O)C(=O)N[C@@H](CC(C)C)C(=O)NCC(=O)N[C@@H](CCCCN)C(=O)N[C@@H](Cc1c[nH]cn1)C(=O)N[C@@H](CC(C)C)C(=O)N[C@@H](CC(N)=O)C(=O)N[C@@H](CO)C(=O)N[C@@H](CCSC)C(=O)N[C@@H](CCC(=O)O)C(=O)N[C@@H](CCCNC(=N)N)C(=O)N[C@H](C(=O)N[C@@H](CCC(=O)O)C(=O)N[C@@H](Cc1c[nH]c2ccccc12)C(=O)N[C@@H](CC(C)C)C(=O)N[C@@H](CCCNC(=N)N)C(=O)N[C@@H](CCCCN)C(=O)N[C@@H](CCCCN)C(=O)N[C@@H](CC(C)C)C(=O)N[C@@H](CCC(N)=O)C(=O)N[C@@H](CC(=O)O)C(=O)N[C@H](C(=O)N[C@@H](Cc1c[nH]cn1)C(=O)N[C@@H](CC(N)=O)C(=O)N[C@@H](Cc1ccccc1)C(=O)N[C@@H](CCCCNC(=O)c1ccc2c(c1)C1(OC2=O)c2ccc(N(C)C)cc2Oc2cc(N(C)C)ccc21)C(N)=O)C(C)C)C(C)C, the kon was 340000 ± 80000 M⁻¹ s⁻¹ (PTH1R (Homo sapiens, UniProt Q03431); binding, NanoBRET; HEK293 stably expressing receptor; room temperature, 0.02% sodium azide, together with: 5 µM coelenterazine h).
The Emax of CCCCCCCC/C=C\CCCCCCCC(=O)O[C@H]1C=CCO[C@H]1COP(=O)(O)S (stereo partly drawn) is reported as 6.9% (Lysophosphatidic acid receptor 6 (Homo sapiens, UniProt P43657); agonist, TGFα shedding).
CN(C)c1ccc2c(c1)[Si](C)(C)C1=CC(=[N+](C)C)C=CC1=C2c1cc(C(=O)NCCCCCC(=O)NCCOc2cc(C(=O)Nc3cc(OCCN4CCCC4)c4ccccc4n3)nc(C(=O)Nc3cc(OCCN4CCCC4)c4ccccc4n3)c2)ccc1C(=O)[O-] gave a dwell time of 15.4 s (T2, G-quadruplex DNA (Homo sapiens); single-molecule TIRF; 250 pM, photobleaching-corrected).
Cc1c2c(cc3oc(=O)cc(-c4ccc(Cl)cc4)c13)C(=O)c1cccc(O)c1C2=O has an inhibition of 28.1 ± 0.95% (mushroom tyrosinase; enzyme activity; 25 µg/mL, together with: L-DOPA).
For CC(=O)NCCN(CC(=O)NCCN(CC(=O)NCCN(CC(=O)NCCC(N)=O)C(=O)C[C@@H](N)CCCCN)C(=O)C[C@@H](N)Cc1ccccc1)C(=O)C[C@@H](N)Cc1ccccc1, “binding free energy ΔG°” read -9.03 ± 0.335 kcal/mol (HIV-1 TAR RNA; 25 °C).
The Kd of C[C@@]1(O)c2cccc(O)c2C(O)=C2C(=O)[C@]3(O)C(O)=C(C(N)=O)C(=O)C[C@@H]3C[C@@H]21 is reported as 1.97 nM (T3, RNA aptamer; fluorescence titration; pH 7.5, 25 °C, MgCl2 10 mM).
The ligand efficiency of O=C(c1ccco1)N1CCN(Cc2ccc(Br)cc2)CC1 is reported as 0.15 (MAPK14 (Homo sapiens, UniProt Q16539); enzyme activity).

A few entries again:
For CC(=O)NCCN(CC(=O)NCCN(CC(=O)NCCN(CC(=O)NCCC(N)=O)C(=O)C[C@@H](N)CCCCN)C(=O)C[C@@H](N)Cc1ccccc1)C(=O)C[C@@H](N)Cc1ccccc1, “binding free energy ΔG°” read -9.03 ± 0.335 kcal/mol (HIV-1 TAR RNA; 25 °C).
The Kd of C[C@@]1(O)c2cccc(O)c2C(O)=C2C(=O)[C@]3(O)C(O)=C(C(N)=O)C(=O)C[C@@H]3C[C@@H]21 is reported as 1.97 nM (T3, RNA aptamer; fluorescence titration; pH 7.5, 25 °C, MgCl2 10 mM).
